Measurements gathered from unrelated publications.
Each numbered part is a random draw from the data of one study; scales do not carry over between parts.

Study 1
Target: RNA binding protein fox-1 homolog 2, RRM domain, GST-SBP tag (RBFOX2, Homo sapiens, UniProt O43251-10, residues 100-194)
Method: RNA Bind-n-Seq
Form: RNA
Medium: in vitro
Tested at: 365 nM
Notes: natural RNA segment, single round, ends assumed
Reference: no-protein control
Reading: higher = stronger binding
Measurement: RBNS enrichment (R)
Constant ends, left off below: GGGAGUUCUACAGUCCGACGAUC … UGGAAUUCUCGGGUGCCAA
Target sequence (chain): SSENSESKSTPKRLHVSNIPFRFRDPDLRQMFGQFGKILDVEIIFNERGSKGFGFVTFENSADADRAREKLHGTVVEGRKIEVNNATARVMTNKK
Sequence = GGUGGGAGGCAAGCCAUUGAACUGAACCACGAGGAAAGUAUAUUUUCUUCUUUUCUUUUCCUGCCAAGUUUUCGGUGGCAUUUGUAGAAGCUGGUGUGAAAGGCUAGGAG; value = 0.599
Sequence = AAAUUCCCUGAGGCAAAACUCACUGGCCAAAUUUUGAGAGGGUAUAGAAAAUGACUUUAGAGAUGAGUGGUUUUGUGUAUGUGUCUGAUGAUAUUCAGUCUGAUGUUCCG; value = 0.368
Sequence = UUUUCAGAGUCUAUAAGCAUGCAGCCAUGGGUUGUGAGCUGACCUUGAGACAGGACGGGUCCCACACUCCCUGCCUCUGUCUCACUCAACACUCAGGCUAAGAAGGAGCG; value = 9.09
Sequence = CCUCCGUAAACUCAGGAAGUGUCAGGUGAUUUCCUAGGGAGAGGUUCCCAGUCCCAGCAGGCAGAAUGCCCAAAACCAGGAGCACGAAGGCCUGUCAUCCAUGGGGCCAU; value = 0.611
Sequence = UUAACAAGACUUUUUGUACUGAAAACAAUUUUUUUGAAUCUUUCGUAGCCUAAAAGACAAUUUUCCUUGGAACACAUAAGAACUGUGCAGUAGCCGUUUGUGGUUUAAAG; value = 0.302
Sequence = AUAAAGAAGCUAACCUGCCAUAGUCAGACUUCAGACUUUCAAGAUUAUUCUAAAUCACCAGAAAAUUAAUUUCAGUUUCUAUUGGGAGUUUAUACCAAGAGAUUCUUCUA; value = 0.486
Sequence = CAUGCAGGUAAUGACAAUAUACUGUAAAUACCACAUGUGAGUUUACCUGAAUCUGUGCAUUUUGUGCCUUAUUCAUGAGAAUGAUAGAAGUACUAAAAUCUGUCAAGUGU; value = 0.261
Sequence = AUUACAAGUAAUGUAAAGAUGAUUUAAGUAUACAGGAGGAUGUGAAUAGGUUAUAUGCAAGCACUAUGCCCUUUUAUAUAAGUGACUUGAACAUCUGUGCCCGAUUUUAG; value = 0.8

Study 2
Target: Interferon regulatory factor 5, full length, phosphomimetic (IRF5, Homo sapiens, UniProt Q13568-2, residues 1-514, S451D/S453D/S456D/S462D)
Method: protein-binding microarray
Form: double-stranded DNA, one strand shown
Medium: in vitro
Tested at: 940 nM top
Notes: 60-bp whole probe
Added: salmon DNA 0.4 mg/ml
Reference: random background probes
Reading: higher = stronger binding
Measurement: fitted relative affinity
Constant ends, left off below: GCCTAGCAC … GTCTTGATTCGCTTGACGCTGCTG
Sequence = TTTGGTATCCTTCTCCTTTAGTGCTAG; value = 1.51 z-score
Sequence = TTCGGTTCCCTTTTCCTTTAGTGCTAG; value = 1.27 z-score
Sequence = GACGGTATCGACATTCGGGACGTGCTA; value = 3.46 z-score
Sequence = TCACCTTTCACTTTAACACTGTGCTAG; value = 2.09 z-score
Sequence = TTAGATTTAGGGACTGGATTAGTGCTA; value = -0.215 z-score
Sequence = TCAACTTTATGTAGGAAACTGTGCTAG; value = 0.0744 z-score
Sequence = CTCTACATGTGTTTAAGAATGTGCTAG; value = -0.186 z-score
Sequence = TCCAGTCTGGGAGATGAAGCGGTGCTA; value = -0.652 z-score
Sequence = GACGGTATCGACACTGGGGTCGTGCTA; value = 4.4 z-score
Sequence = TTAGGTTTCGGGTAACGGTTAGTGCTA; value = 11.4 z-score
Sequence = GACAGTTTCGGTTTCGGGACGTGCTAG; value = 14.8 z-score
Sequence = CGGAATTTCCCTCTGCTCCTGTGCTAG; value = 0.327 z-score
Sequence = AACGGTTTCGGTTTCGGGACGTGCTAG; value = 14.2 z-score
Sequence = TTAGGACTGCATCTCCTTTAGTGCTAG; value = -0.408 z-score
Sequence = TTAGAATTGGGGTTTCGATTAGTGCTA; value = 5.83 z-score
Sequence = TTTGCTTTCCTTTGCTTTCTGTGCTAG; value = 0.958 z-score

Study 3
Target: Ras GTPase-activating protein-binding protein 1, RRM domain (G3BP1, Homo sapiens, UniProt Q13283)
Chain of UniProt Q13283 (whole entry, looked up): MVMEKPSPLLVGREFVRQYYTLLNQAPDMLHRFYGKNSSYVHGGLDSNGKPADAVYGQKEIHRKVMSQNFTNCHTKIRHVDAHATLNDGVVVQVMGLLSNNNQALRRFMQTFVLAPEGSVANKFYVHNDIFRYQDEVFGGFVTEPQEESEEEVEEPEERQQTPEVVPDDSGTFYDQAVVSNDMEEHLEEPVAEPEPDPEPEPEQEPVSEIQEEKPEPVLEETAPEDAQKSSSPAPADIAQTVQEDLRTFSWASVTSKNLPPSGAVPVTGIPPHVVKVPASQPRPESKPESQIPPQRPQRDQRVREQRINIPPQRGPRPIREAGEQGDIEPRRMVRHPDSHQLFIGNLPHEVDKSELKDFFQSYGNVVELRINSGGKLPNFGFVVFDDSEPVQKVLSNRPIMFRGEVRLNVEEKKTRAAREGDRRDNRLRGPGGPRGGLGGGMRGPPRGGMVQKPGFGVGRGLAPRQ
Method: RNA Bind-n-Seq
Form: RNA
Medium: in vitro
Tested at: 1 µM
Notes: whole 134-nt RNA, ends assumed
Added: 150 mM KCl
Reference: input library
Reading: higher = stronger binding
Measurement: log2 enrichment
Constant ends, left off below: GGGAGUUCUACAGUCCGACGAUC … UGGAAUUCUCGGGUGUCAAGG
Sequence = CAAGUCCUGUGCUACACAUCGUAUGUACCGAAUCGGCCCGGCCCGGGGCCCGGGGAAAGUAUUAUGUUACGCCGUUCGGAUCUGCACUUC; value = -0.735
Sequence = GUCCUGUGCUACACAUCGUAUGUACCGAAUCGGUUUUUUUGGUUUUUUUGGAAAAAGGAAAGUAUUAUGUUACGCCGUUCGGAUCUGCAC; value = -0.317
Sequence = ACCAUGCAGGUGGGCAUCUUUGGGAAGUGGGGCAAGGGGGGGAAAGGGAGGGGGGUAACACUUUGGGAACAGGUGGUCCCAGGUCGUUUC; value = -0.181
Sequence = UUCCUCAAGUCCUGUGCUACACAUCGUAUGUACCGAAUCGGGCGGCGGCGGAAAGUAUUAUGUUACGCCGUUCGGAUCUGCACUUCCAGC; value = -0.136
Sequence = CAAGUCCUGUGCUACACAUCGUAUGUACCGAAUCGGCCCCGGCCCCGGCCCCGGGGAAAGUAUUAUGUUACGCCGUUCGGAUCUGCACUU; value = -1.42
Sequence = GGAUCAAAGCAAGUUGGAGAAACAUCAGCACCUGGAGACACCUUAGAUGGCACACCUCGUACUCUCAAUACUGUCUUUGAUUUCCCACCA; value = -0.0485
Sequence = ACUGAGGUACUGCCCUCCCCUGCCCCCUACCCUCUCCCUUGUCCCUCUACCCCGUUCCUCCCCUUCCCUCCAUUCCCUUUCCCCAACCUG; value = -0.284
Sequence = ACCAUGCAGGUGGGCAUCUUUGGGAAGUGGGGCAAGGGGGGGAUAGGGAGGGAGGUAACACUUUGGGAACAGGUGGUCCCAGGUCGUUUC; value = 0.754
Sequence = UCUGUUUCCUCUGCCAGUGGCAAUGCAACACCUAACACUCCUGGGGAUGAGUCUCCCUGUGGUAUUAUUAUUCCUCAUGAAAACUCACCA; value = 0.0618

Study 4
Target: Sal-like protein 4, full length isoform B (SALL4, Homo sapiens, UniProt Q9UJQ4-2, residues 1-616)
Method: universal PBM
Form: double-stranded DNA, one strand shown
Medium: in vitro
Tested at: not given
Notes: 8-mer, flanks averaged, mean of replicates
Reading: higher = stronger binding
Measurement: E-score
Sequence = AGTCGCTC; value = -0.131
Sequence = AAAAGTAA; value = 0.316
Sequence = GTACCGTA; value = -0.064
Sequence = GGCAGGTA; value = -0.172
Sequence = GCCTATCA; value = -0.02
Sequence = CAGTTATG; value = 0.27
Sequence = AAGATAAG; value = 0.189
Sequence = ATCTCGAC; value = 0.0485
Sequence = GCCAAGCA; value = -0.14
Sequence = ACCCTACA; value = 0.0683
Sequence = AGGTGAAC; value = -0.149
Sequence = CCGTAGCA; value = -0.00517
Sequence = AATGTAGC; value = 0.0883
Sequence = TAGGACTA; value = 0.105
Sequence = CCAACTCC; value = -0.152
Sequence = CTAATGTA; value = 0.211
Sequence = GTTAGGGA; value = -0.0558
Sequence = CTCATCAG; value = 0.0134
